Published values gathered from unrelated publications.
Each line is one published result; not all experiments were run side by side. Values joined by “and” are separate records of one study, mostly repeats; a detail may differ. ± marks the error that the study gave.
EIF4E2: EIF4E2 52-234 (Homo sapiens, UniProt O60573-1)
CDC48A: CDC48A 1-463 (Arabidopsis thaliana, UniProt P54609)
Sequence of UniProt P54609 (whole entry, looked up): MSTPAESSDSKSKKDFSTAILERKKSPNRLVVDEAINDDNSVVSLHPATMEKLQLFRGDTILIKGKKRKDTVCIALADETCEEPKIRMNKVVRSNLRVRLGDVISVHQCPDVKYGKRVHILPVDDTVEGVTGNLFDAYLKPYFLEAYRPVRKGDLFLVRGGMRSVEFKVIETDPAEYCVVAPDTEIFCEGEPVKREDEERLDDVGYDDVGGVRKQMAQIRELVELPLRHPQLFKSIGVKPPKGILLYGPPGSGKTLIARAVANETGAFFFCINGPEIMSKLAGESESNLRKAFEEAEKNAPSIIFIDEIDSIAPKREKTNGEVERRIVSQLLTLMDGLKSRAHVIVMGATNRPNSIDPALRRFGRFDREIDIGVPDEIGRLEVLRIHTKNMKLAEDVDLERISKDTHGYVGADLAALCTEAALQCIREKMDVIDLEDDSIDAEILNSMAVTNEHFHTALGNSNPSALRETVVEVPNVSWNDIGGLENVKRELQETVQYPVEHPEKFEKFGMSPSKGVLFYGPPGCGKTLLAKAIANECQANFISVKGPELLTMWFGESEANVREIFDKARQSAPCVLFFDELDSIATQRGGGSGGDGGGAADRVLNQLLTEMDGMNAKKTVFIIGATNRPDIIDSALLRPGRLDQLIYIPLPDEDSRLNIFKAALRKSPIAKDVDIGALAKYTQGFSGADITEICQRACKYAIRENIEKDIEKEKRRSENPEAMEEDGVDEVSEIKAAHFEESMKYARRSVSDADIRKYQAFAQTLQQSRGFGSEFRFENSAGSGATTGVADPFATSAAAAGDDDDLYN
T1: ATRX ADD domain 167-289 K251R/F284Y (Homo sapiens); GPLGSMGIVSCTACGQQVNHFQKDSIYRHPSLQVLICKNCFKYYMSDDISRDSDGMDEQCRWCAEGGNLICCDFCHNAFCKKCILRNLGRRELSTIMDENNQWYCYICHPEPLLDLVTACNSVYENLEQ
B1: Atg23 full-length, dimer (yeast, UniProt Q06671); sequence looked up; chain MELNQVLEKKEQILQYLGTLVGLHEKALSDVNSASQVTSIRKDITICLNDLCRINDLLVSHDGLLKREIGSLLRDKQELLELNEREQLLWKERKSWHIKQETDAAPADYVIDKDAIITISSHHRTSLNKYIESVGAENTILSNTDDSDAMIEEVQNAESSADQMIRNYKLLQLSHKQAKSEIIRLETLLRDFKKDNKFIEEELKRQSGRIRSEMGNIDFHLSKIEESKHQLMKRIGFESPLTQEKSLSEKIFNLRLSSADEDYNERQTINMKNFVHMKDLIELKIEDLQEQLMRNKNESSTVLTQRELWLDCQKKVGDLESKLITKLRSSSNSKIPPNEMSEMINSTIQYLNNLLDSSDEKLTTTLISNERDVLSKACEELHSESTTAQDGSSALPSKPIDIHKSHKGSNASSNLKQPSTPSFLVASKSPPKIGISESVVNANKNDAISKKVE
B2: PUX4 (Arabidopsis thaliana, UniProt Q8RWU7); chain MSSKDKKPSKPSSSRGGIRTLSDLNRRSGPDSDSDSDGPQEYYTGGEKSGMLVQDPSKKDDVDEIFNQARQLGAVEGPLEPPPSSRSFTGTGRLLSGENVPTGNQQPEPVVHNIVFWSNGFTIDDGPLRKLDDPENASFLESIRKSECPKELEPADRRAPVHVNLMRKEEKCPERQKRRVSFQGVGRTLGGSNEGSGSSSPVAPDSAPIPIQTEPAPSQSLVIDETVPTTSIQLRLADGTRLVAKFNHHHTVNDIRGFIDSSRPGASLNYQLQTMGFPPKPLTDLTQTIEEAGLANSVVLQKF
B3: mxt 577-640 (Drosophila melanogaster, UniProt Q9VR35); sequence looked up; chain SRVSYDIEHLLYYSMSPHSWTLPTDWQKMQETAPSILRNKDLQDESQRFDGDKYLASIKTAAKR
B4: YWHAE (Homo sapiens, UniProt P62258); sequence looked up; chain MDDREDLVYQAKLAEQAERYDEMVESMKKVAGMDVELTVEERNLLSVAYKNVIGARRASWRIISSIEQKEENKGGEDKLKMIREYRQMVETELKLICCDILDVLDKHLIPAANTGESKVFYYKMKGDYHRYLAEFATGNDRKEAAENSLVAYKAASDIAMTELPPTHPIRLGLALNFSVFYYEILNSPDRACRLAKAAFDDAIAELDTLSEESYKDSTLIMQLLRDNLTLWTSDMQGDGEEQNKEALQDVEDENQ
B5: PUX7 (Arabidopsis thaliana, UniProt Q94JZ8); chain MEGMLSSGDQQRLVSSFLEIAVGQTAETARQFLQATSWKLEEAIQLFYIGNEGGMLQSGTHTQPASNDDAAAQSWGAATGTGNEMILPNDVDEVRAPLPVVRETLYGESMYYGAMRVGNSQPEPNSLIAFRNFSEEPKSPGIWEPDEGDSSASASASASASESASAPRDSLASLYRPPFHLMFQGSFEQAKTTSSSQDKWLLVNLQSTTEFSSHMLNRDTWANDAVSQTIKANFIFWQVYDDTTEGRKVCTYYKLESIPVVLVIDPTTGQRMRMWTGMVDPENLLEDLVPFMDGGPREHFASLSKKRPRGSFSLTPHSKPKEDVAKDEEEEELQRALAASLEDNNMKESSDDQSTIIPEEVAVEAVTSAVLPTFPPLPEEPKGGDRSLQCRVGIRLPNGQRLQRNFLKTDTIQLLWSFCYSQLEESERKKPLKLTQAIPGESKTLEYESNLTLEQSGVANSMISATWE
B6: DTNA 458-564 (Homo sapiens, UniProt Q9Y4J8-1); sequence looked up; chain SAPDISFTIDANKQQRQLIAELENKNREILQEIQRLRLEHEQASQPTPEKAQQNPTLLAELRLLRQRKDELEQRMSALQESRRELMVQLEGLMKLLKTQGAGSPRSS
B7: HERC2 2540-2700 (Homo sapiens, UniProt O95714); chain STGAVVTESQTYKKRADFLSNDDYAVYVRENIQVGMMVRCCRAYEEVCEGDVGKVIKLDRDGLHDLNVQCDWQQKGGTYWVRYIHVELIGYPPPSSSSHIKIGDKVRVKASVTTPKYKWGSVTHQSVGVVKAFSANGKDIIVDFPQQSHWTGLLSEMELVP
B8: PUX5 301-421 (Arabidopsis thaliana, UniProt Q7Y175); chain KNPFQGVGRTLGASGSGSSSAPQASSAPMNVAPAPSRGLVVDPAAPTTSIQLRLADGTRLVSRFNNHHTVRDVRGFIDASRPGGSKEYQLLTMGFPPKQLTELDQTIEQAGIANAVVIQKF
B9: BBC3 (Homo sapiens, UniProt Q9BXH1-2); chain MKFGMGSAQACPCQVPRAASTTWVPCQICGPQPSLSLAEQHLESPVPSAPGALAGGPTQAAPGVRGEEEQWAREIGAQLRRMADDLNAQYERRRQEEQQRHRPSPWRVLYNLIMGLLPLPRGHRAPEMEPN
B10: PUX5 (Arabidopsis thaliana, UniProt Q7Y175); chain MATETNENLINSFIEITSSSREEANFFLESHTWNLDAAVSTFLDNDAAAAAEPNPTGPPPPSSTIAGAQSPSQSHSPDYTPSETSPSPSRSRSASPSSRAAPYGLRSRGGAGENKETENPSGIRSSRSRQHAGNIRTFADLNRSPADGEGSDSDEANEYYTGGQKSGMMVQDPKKVKDVDELFDQARQSAVDRPVEPSRSASTSFTGAARLLSGEAVSSSPQQQQQEQPQRIMHTITFWLNGFTVNDGPLRGFSDPENAAFMNSISRSECPSELEPADKKIPVHVDLVRRGENFTEPPKPKNPFQGVGRTLGASGSGSSSAPQASSAPMNVAPAPSRGLVVDPAAPTTSIQLRLADGTRLVSRFNNHHTVRDVRGFIDASRPGGSKEYQLLTMGFPPKQLTELDQTIEQAGIANAVVIQKF
B11: GIGYF1 33-103 E44A/E45F/Q87A (Homo sapiens, UniProt O75420); chain KYKLADYRYGRAFMLALYVKENKVPEELQDKEFAAVLQDEPLQPLALEPLTEEEARNFSLSVNSVAVLRLM
Sequence of UniProt Q09822 (whole entry, unmodified, looked up): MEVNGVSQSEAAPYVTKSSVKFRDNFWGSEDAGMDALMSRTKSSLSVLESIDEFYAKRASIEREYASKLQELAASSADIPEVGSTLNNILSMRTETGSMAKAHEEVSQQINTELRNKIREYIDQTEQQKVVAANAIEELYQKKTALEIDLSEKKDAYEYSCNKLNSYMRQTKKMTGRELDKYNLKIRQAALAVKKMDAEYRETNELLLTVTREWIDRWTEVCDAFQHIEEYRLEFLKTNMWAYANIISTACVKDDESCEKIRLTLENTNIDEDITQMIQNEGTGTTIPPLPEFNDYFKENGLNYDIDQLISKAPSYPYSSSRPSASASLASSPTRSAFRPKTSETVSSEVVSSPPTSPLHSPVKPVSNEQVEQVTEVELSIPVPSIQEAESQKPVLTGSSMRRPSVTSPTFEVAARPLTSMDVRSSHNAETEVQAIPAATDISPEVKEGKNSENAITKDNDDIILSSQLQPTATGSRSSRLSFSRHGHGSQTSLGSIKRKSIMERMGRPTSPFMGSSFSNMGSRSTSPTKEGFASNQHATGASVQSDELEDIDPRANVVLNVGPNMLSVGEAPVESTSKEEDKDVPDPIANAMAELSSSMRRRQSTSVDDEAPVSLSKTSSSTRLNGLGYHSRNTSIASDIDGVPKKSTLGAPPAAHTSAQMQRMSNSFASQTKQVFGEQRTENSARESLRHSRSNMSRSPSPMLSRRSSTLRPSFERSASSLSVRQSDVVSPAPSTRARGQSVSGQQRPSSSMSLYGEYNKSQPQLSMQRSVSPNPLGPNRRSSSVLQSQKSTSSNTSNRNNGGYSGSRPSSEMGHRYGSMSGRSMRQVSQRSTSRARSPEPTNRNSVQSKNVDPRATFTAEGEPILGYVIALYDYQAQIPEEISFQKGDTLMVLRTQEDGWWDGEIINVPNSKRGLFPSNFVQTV
Sequence of UniProt Q03012 (whole entry, looked up): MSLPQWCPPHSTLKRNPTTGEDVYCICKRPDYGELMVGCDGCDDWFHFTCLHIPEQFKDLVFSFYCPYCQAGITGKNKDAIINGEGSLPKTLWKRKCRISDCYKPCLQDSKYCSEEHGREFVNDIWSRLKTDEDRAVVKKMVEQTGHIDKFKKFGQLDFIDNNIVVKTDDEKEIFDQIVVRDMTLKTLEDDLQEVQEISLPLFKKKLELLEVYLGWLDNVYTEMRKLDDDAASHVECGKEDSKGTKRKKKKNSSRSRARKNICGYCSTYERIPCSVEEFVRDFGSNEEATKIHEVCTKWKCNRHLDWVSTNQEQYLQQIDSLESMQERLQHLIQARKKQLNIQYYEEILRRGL
Sequence of UniProt Q12142 (whole entry, looked up): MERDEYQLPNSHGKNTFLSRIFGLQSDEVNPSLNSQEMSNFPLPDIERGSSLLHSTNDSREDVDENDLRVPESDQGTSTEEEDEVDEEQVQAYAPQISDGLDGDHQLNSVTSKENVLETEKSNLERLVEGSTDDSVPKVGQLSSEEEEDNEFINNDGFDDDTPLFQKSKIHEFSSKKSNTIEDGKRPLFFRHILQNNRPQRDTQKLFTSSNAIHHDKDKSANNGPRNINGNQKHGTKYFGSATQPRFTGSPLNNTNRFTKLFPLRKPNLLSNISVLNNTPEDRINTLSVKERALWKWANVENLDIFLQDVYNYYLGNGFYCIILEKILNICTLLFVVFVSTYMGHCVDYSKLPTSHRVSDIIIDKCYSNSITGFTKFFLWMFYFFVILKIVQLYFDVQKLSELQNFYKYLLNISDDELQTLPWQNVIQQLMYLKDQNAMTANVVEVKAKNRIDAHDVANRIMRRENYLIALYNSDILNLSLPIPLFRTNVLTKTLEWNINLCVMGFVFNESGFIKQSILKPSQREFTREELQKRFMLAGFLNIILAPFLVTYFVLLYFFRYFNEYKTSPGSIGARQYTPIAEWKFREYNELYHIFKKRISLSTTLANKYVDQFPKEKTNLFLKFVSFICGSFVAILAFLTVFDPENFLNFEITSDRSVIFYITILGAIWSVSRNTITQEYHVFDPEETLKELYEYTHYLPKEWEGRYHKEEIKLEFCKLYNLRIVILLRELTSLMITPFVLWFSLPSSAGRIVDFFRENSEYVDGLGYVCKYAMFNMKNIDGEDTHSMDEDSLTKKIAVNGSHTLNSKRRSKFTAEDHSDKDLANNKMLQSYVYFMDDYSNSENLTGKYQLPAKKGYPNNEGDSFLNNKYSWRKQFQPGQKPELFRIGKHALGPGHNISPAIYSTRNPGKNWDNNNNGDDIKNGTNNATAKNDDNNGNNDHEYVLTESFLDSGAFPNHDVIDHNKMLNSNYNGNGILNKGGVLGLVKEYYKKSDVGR
Sequence of UniProt P0C0L4 (whole entry, looked up): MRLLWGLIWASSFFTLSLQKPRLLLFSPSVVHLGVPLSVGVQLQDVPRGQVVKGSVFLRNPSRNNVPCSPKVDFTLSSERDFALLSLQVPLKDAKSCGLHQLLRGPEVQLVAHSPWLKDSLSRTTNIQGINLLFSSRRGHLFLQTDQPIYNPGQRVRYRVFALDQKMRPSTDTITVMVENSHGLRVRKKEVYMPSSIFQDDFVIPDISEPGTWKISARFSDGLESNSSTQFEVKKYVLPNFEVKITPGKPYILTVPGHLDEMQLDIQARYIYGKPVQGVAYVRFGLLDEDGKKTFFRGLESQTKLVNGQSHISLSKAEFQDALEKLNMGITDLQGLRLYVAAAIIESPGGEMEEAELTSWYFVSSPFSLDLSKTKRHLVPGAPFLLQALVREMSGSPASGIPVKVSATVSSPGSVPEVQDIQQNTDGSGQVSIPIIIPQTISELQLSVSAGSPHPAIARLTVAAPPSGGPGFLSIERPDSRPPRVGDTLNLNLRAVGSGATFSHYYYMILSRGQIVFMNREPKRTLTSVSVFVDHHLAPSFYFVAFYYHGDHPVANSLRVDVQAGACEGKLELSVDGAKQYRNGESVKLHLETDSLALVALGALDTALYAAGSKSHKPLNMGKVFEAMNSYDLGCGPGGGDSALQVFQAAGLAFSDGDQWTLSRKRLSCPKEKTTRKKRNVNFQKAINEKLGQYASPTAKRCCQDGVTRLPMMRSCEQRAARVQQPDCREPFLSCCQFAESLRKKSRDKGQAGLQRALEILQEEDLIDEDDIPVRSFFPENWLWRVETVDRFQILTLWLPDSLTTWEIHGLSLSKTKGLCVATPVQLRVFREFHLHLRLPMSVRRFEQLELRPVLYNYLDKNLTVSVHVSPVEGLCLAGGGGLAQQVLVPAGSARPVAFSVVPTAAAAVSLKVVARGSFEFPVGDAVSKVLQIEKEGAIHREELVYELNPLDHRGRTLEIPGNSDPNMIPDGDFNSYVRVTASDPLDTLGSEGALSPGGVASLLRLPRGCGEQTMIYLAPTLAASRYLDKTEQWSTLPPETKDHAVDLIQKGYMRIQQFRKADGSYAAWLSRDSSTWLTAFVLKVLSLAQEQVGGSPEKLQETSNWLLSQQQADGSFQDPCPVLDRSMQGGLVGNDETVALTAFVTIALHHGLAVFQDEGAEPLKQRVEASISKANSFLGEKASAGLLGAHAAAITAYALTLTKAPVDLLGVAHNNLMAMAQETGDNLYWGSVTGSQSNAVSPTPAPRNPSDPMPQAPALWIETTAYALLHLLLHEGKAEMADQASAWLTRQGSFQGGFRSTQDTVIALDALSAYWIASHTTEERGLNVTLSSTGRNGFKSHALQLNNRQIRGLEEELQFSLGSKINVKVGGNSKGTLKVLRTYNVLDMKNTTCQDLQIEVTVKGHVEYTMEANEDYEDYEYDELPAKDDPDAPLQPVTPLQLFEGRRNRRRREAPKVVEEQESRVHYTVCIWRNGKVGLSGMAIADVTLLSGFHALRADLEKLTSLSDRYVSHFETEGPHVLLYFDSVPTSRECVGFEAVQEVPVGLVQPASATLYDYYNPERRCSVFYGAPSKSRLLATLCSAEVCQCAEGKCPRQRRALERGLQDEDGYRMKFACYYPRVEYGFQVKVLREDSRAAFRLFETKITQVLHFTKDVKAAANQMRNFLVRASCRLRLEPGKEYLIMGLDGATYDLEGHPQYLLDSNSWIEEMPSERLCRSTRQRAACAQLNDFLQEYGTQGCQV

`B1 (Atg23 full-length, dimer)` — result for “molecule per partner”: 0.79 (ATG9 864-997 (Saccharomyces cerevisiae, UniProt Q12142); ITC; 20 °C, NaCl 150 mM).
`ARTKQTARAS (H3C1 1-10 K9A)`: “molecule per partner” 1.01 (T1, ATRX ADD domain 167-289 K251R/F284Y (Homo sapiens); ITC; peptide).
`KYKLADYRYGREEMLALYVKENKVPEELQDKEFAAVLQD (GIGYF1 33-71 (Homo sapiens, UniProt O75420))`: “molecule per partner” 1 ± 0.01 (EIF4E2; ITC; peptide).
Under “normalised SPR binding response”, `GSGAGICTIV` is recorded as 43.3 normalised RU (human SCRIB PDZ3-4 tandem (MBP fusion); surface plasmon resonance; peptide; concentration not given; higher = stronger binding).
`B2 (PUX4)`: “molecule per partner” 0.5 (CDC48A; ITC; 25 °C).
With `colistin` the MIC was at most 1 µg/mL (Pseudomonas aeruginosa; clinical isolate RKI 230/10).
`ARTKQTARKSTGGKA (H3C1 1-15; K9me3)` — result for “molecule per partner”: 1.04 (T1, ATRX ADD domain 167-289 K251R/F284Y (Homo sapiens); ITC; peptide).
For `CHD1 fragment (Saccharomyces cerevisiae)`, “molecule per partner” read 2 Chd1:nucleosome (nucleosome (Xenopus laevis); EMSA).
Under “molecule per partner”, `SEPTIN6 (Homo sapiens, UniProt Q14141)` is recorded as 1 (SEPTIN3 (Homo sapiens, UniProt Q9UH03-1); co-sedimentation).
For `B3 (mxt 577-640)`, “molecule per partner” read 1 ± 0.02 (eIF4E1 69-248 I96A/I112A (Drosophila melanogaster, UniProt P48598-2); ITC).
For `SPP1 (Saccharomyces cerevisiae, UniProt Q03012)`, “molecule per partner” read 2 per Mer2 tetramer (REC107 (Saccharomyces cerevisiae, UniProt P21651); SEC-MALS).
`B4 (YWHAE)`: “molecule per partner” 0.9 (FOXO3 residues 248-258, pS253 (Homo sapiens); ITC).
For `FYN fragment (Homo sapiens) (sequence not shown)`, “molecule per partner” read 0.9 ± 0.2 (PIK3R1 fragment (Homo sapiens); ITC).
`RTKQTARKSTGGKAP (H3C1; N-acetyl, benzoyl-lysine K9, C-terminal amide)` — result for “molecule per partner”: 0.825 ± 0.00711 (MLLT3 2-138 F28S (Homo sapiens, UniProt P42568); ITC; peptide).
Under “molecule per partner”, `C4b (Homo sapiens, UniProt P0C0L4)` is recorded as 1 C4b per C4BP (C4BP/PROS1 mature (human); mass photometry).
`B5 (PUX7)`: “molecule per partner” 1.1 ± 0.1 (CDC48A; ITC; 10 °C).
`Peginesatide` has a mRNA level of 3.2 fold (UT7/EPO; RT-qPCR, measured: PTGS2; concentration not given, 90 min, normalized to HPRT1; baseline: vehicle).
`TRIIYDRKFLMECRNSPVTKTPPRDLPTIPGVTS (EIF4EBP1 50-83 (Homo sapiens, UniProt Q13541))` — result for “molecule per partner”: 1.01 ± 0.01 (EIF4E2; ITC; peptide).
Under “molecule per partner”, `ARTKQTARKSTGGKA (H3C1 1-15; K4me3/K9me3)` is recorded as 1.06 (T1, ATRX ADD domain 167-289 K251R/F284Y (Homo sapiens); ITC; peptide).
`ARTKQTARKSTG (histone H3 2-13 (UniProt P68431); K4me2; sequence looked up)`: “molecule per partner” 0.88 (PHD tandem finger domain 364-473 (Physcomitrium patens, UniProt A0A2K1L966); ITC; peptide).
For `B6 (DTNA 458-564)`, “molecule per partner” read 0.97 (DMD 3365-3685 (Homo sapiens, UniProt P11532-1); ITC).
`ARTKQTARKSTGGKAY (H3C1 1-15; K4me2)` — result for “molecule per partner”: 1.05 (T1, ATRX ADD domain 167-289 K251R/F284Y (Homo sapiens); ITC; peptide).
Under “molecule per partner”, `B7 (HERC2 2540-2700)` is recorded as 1 (NCOA4 383-442, 2Fe-2S cluster bound (UniProt Q13772); AUC).
`B8 (PUX5 301-421)` — result for “molecule per partner”: 0.9 ± 0.1 (CDC48A; ITC; 25 °C).
`B9 (BBC3)`: “molecule per partner” 0.97 (BCL2L1 fragment (Homo sapiens); ITC).
`B10 (PUX5)`: “molecule per partner” 0.5 ± 0.1 (CDC48A; ITC; 25 °C).
Under “molecule per partner”, `B11 (GIGYF1 33-103 E44A/E45F/Q87A)` is recorded as 1.01 ± 0.01 (EIF4E2 52-234 Q159S/M161D/R202E (Homo sapiens, UniProt O60573-1); ITC; peptide).
`TPTPSARRTIGPRAPKSKTTY (Cdc12 residues 20-40 (Schizosaccharomyces pombe))` — result for “molecule per partner”: 0.5 and 0.52 and 0.49 and 0.55 (cdc15 19-312 E30K/E152K (Schizosaccharomyces pombe, UniProt Q09822); ITC; peptide).
`PUX5 fragment F304A/L311A (Arabidopsis thaliana)`: “molecule per partner” 1.1 ± 0.1 (CDC48A; ITC; 25 °C).
For `GSGAGKETSF`, “normalised SPR binding response” read 97.5 normalised RU (human SCRIB PDZ3-4 tandem (MBP fusion); surface plasmon resonance; peptide; concentration not given; higher = stronger binding).

Repeated from above:
`Peginesatide` has a mRNA level of 3.2 fold (UT7/EPO; RT-qPCR, measured: PTGS2; concentration not given, 90 min, normalized to HPRT1; baseline: vehicle).
`TRIIYDRKFLMECRNSPVTKTPPRDLPTIPGVTS (EIF4EBP1 50-83 (Homo sapiens, UniProt Q13541))` — result for “molecule per partner”: 1.01 ± 0.01 (EIF4E2; ITC; peptide).
Under “molecule per partner”, `ARTKQTARKSTGGKA (H3C1 1-15; K4me3/K9me3)` is recorded as 1.06 (T1, ATRX ADD domain 167-289 K251R/F284Y (Homo sapiens); ITC; peptide).
`ARTKQTARKSTG (histone H3 2-13 (UniProt P68431); K4me2; sequence looked up)`: “molecule per partner” 0.88 (PHD tandem finger domain 364-473 (Physcomitrium patens, UniProt A0A2K1L966); ITC; peptide).
